Published values pooled from the literature.
Numbered parts are unrelated; each lists some results of a single study. Values joined by “and” are separate records of one study, mostly repeats; a detail may differ.
Chain of UniProt P35968 (whole entry, looked up): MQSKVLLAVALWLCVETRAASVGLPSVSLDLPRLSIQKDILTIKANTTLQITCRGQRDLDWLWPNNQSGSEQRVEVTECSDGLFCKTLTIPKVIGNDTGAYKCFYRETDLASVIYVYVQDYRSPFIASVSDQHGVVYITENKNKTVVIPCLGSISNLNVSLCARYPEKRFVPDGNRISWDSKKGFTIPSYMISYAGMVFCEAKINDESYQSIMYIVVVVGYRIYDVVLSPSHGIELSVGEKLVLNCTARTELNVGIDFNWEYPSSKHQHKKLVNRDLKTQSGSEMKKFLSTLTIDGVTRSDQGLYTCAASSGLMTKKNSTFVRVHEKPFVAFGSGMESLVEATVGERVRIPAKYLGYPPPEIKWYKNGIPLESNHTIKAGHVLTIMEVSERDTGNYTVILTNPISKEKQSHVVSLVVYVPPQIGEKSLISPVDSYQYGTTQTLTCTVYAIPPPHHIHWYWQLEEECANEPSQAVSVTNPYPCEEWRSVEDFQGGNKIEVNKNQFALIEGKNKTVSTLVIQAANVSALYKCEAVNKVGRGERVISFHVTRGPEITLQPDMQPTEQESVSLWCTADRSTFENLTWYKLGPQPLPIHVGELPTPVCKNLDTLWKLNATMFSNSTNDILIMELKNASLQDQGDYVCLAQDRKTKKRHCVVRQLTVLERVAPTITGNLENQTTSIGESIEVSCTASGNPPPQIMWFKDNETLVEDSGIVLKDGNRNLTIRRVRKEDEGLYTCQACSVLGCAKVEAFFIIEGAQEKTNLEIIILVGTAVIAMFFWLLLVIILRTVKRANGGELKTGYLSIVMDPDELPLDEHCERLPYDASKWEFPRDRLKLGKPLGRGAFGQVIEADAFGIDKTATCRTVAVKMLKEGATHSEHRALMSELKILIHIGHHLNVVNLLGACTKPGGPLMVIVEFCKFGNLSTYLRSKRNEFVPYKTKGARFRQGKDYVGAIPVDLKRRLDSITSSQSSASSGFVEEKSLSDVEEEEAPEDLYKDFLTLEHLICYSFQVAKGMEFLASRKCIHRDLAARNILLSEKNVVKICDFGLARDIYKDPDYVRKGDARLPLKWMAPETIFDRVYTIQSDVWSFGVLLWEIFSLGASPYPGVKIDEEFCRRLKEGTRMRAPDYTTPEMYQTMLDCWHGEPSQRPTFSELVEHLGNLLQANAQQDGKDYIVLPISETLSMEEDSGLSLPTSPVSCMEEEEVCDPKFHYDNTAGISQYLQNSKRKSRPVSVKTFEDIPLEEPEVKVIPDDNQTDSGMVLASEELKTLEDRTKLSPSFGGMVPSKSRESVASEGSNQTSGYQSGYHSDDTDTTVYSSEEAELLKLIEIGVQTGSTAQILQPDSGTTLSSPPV
Chain of UniProt P35626 (whole entry, looked up): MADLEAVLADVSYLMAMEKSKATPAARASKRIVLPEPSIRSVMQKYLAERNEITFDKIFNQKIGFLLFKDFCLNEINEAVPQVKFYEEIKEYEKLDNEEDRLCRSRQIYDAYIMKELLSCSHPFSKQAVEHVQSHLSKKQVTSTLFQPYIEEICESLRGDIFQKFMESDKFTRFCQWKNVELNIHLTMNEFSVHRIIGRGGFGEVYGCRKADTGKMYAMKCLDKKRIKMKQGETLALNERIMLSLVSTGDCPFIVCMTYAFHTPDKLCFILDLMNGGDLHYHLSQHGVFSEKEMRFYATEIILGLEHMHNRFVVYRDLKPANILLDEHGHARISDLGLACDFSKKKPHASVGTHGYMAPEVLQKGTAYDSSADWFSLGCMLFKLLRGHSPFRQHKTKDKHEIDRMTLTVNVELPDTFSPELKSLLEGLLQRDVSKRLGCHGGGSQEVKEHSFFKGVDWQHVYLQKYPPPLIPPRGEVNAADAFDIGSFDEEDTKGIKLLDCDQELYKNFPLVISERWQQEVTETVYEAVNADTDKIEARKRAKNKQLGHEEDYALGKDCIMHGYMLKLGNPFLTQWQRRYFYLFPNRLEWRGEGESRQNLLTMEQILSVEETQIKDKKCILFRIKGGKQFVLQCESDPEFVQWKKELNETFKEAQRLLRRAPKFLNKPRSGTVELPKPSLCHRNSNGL
Chain of UniProt Q96BR1 (whole entry, looked up): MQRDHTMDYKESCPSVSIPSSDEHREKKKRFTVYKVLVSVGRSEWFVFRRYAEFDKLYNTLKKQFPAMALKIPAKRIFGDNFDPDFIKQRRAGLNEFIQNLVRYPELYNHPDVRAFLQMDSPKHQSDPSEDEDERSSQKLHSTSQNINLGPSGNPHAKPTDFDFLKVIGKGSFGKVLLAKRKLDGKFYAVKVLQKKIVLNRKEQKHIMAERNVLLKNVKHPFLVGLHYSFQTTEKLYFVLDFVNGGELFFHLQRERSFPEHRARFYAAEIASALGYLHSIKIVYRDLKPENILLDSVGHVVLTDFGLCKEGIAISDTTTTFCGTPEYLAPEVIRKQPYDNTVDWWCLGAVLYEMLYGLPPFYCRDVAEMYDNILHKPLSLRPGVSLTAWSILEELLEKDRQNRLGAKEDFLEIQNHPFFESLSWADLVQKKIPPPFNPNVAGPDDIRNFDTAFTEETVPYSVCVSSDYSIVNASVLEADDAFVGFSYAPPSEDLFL
Chain of UniProt P42338 (whole entry, looked up): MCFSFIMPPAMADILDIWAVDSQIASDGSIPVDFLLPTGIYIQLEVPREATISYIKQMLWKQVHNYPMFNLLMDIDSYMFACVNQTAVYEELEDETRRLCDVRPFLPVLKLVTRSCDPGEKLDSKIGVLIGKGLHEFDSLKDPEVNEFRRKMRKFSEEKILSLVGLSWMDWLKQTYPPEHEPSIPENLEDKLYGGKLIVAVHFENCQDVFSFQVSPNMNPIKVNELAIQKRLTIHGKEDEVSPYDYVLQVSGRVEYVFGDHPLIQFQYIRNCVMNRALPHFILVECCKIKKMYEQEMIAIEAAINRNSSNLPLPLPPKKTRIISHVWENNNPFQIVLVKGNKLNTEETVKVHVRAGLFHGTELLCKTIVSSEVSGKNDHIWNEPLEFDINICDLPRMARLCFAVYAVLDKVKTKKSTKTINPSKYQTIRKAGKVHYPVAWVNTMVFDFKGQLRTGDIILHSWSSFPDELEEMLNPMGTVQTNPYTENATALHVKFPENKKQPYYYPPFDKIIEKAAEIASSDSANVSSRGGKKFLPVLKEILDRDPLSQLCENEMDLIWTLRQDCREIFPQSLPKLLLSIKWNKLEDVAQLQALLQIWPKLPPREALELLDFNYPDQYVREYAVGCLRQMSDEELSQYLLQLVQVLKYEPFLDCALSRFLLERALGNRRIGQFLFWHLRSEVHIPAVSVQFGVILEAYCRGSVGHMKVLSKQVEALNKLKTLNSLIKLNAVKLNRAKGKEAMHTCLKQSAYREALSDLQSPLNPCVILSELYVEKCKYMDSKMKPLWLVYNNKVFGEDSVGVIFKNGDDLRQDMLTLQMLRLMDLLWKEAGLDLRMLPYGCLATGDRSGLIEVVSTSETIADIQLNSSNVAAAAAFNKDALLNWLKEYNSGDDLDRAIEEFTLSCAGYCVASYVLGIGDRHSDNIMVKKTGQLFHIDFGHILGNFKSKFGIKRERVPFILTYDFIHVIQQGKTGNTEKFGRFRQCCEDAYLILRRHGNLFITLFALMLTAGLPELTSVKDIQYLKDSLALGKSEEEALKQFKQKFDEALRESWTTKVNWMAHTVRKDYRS
Chain of UniProt P27361 (whole entry, looked up): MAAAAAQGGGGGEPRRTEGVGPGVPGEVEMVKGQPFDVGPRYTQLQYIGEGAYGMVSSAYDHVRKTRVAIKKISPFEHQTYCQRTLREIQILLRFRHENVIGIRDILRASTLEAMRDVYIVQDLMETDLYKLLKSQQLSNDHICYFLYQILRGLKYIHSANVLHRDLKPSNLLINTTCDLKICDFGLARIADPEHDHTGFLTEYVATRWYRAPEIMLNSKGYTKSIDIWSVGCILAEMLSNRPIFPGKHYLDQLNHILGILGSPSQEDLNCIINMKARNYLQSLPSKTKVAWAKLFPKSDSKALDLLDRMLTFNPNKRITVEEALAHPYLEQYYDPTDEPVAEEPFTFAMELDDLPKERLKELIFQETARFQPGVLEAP
Chain of UniProt Q7KZI7 (whole entry, looked up): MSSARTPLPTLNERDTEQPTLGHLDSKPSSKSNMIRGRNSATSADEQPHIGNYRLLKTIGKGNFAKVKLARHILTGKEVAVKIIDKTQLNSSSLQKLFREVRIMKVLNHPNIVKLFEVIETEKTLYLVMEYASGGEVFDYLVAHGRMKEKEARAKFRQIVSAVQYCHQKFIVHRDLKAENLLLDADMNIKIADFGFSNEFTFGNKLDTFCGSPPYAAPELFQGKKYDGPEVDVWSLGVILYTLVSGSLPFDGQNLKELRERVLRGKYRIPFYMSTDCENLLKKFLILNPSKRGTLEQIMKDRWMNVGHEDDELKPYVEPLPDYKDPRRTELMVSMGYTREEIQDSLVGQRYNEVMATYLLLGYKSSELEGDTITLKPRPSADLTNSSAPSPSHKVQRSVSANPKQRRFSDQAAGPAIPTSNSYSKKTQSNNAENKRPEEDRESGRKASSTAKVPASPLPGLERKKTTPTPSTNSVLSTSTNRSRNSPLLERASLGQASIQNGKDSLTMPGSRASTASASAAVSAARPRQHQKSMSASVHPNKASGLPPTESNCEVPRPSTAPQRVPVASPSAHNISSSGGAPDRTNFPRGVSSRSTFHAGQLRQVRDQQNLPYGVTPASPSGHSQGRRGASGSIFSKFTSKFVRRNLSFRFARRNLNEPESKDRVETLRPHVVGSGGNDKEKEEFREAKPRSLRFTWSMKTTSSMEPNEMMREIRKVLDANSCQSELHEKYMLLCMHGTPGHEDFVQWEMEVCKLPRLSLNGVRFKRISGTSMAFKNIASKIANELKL

Sample 1
Compound: COc1cc(-c2nc3ccc(C(=O)NCCCN(C)C)cc3n2C2CCC2)cc(OC)c1OC
Observed: binding
Method: competition with immobilised ligand
Concentration: 1 µM
It gave 97% for remaining binding (MAPK3 (Homo sapiens, UniProt P27361)).
The remaining binding was 90% (PIK3CB (Homo sapiens, UniProt P42338)).
For MAP3K14 (Homo sapiens, UniProt Q99558): remaining binding read 85%.
The remaining binding was 95% (MARK2 (Homo sapiens, UniProt Q7KZI7)).
The remaining binding was 84% (SGK3 (Homo sapiens, UniProt Q96BR1)).
KDR (Homo sapiens, UniProt P35968) — remaining binding: 100%.
GRK3 (Homo sapiens, UniProt P35626) — remaining binding: 97%.
The remaining binding was 91% (Ribosomal protein S6 kinase alpha-6, N-terminal kinase domain (RPS6KA6, Homo sapiens, UniProt Q9UK32)).

Sample 2
SMILES: COc1cc(C(=O)OCCCN2CCCN(CCCOC(=O)c3cc(OC)c(OC)c(OCc4ccc([N+](=O)[O-])cc4)c3)CC2)cc(OC)c1OC
Method: electrocardiography
It gave 555 beats/min and 570 beats/min and 624 beats/min for heart rate (mice; intraperitoneal, 10 mg/kg, 60 min).
For mouse; intraperitoneal, 30 mg/kg, before dosing: heart rate read 568 beats/min and 640 beats/min and 607 beats/min.
For mice; intravenous, 30 mg/kg, 60 min: heart rate read 426 beats/min and 486 beats/min and 489 beats/min and 540 beats/min and 550 beats/min and 543 beats/min.
mouse; intraperitoneal, 10 mg/kg, 10 min — heart rate: 560 beats/min and 589 beats/min and 630 beats/min.
mice; intraperitoneal, 30 mg/kg, 60 min — heart rate: 550 beats/min and 600 beats/min and 620 beats/min.
mouse; intravenous, 30 mg/kg, baseline — heart rate: 480 beats/min and 584 beats/min and 588 beats/min and 529 beats/min and 570 beats/min and 580 beats/min.

Sample 3
Compound: Cn1cc(-c2cccc(CN3CCC4(CC3)COc3c4ccc4c3CN([C@H]3CCC(=O)NC3=O)C4=O)c2)cn1
Observed: metabolic stability
Matrix: liver microsomes
For monkey; 0 h: compound remaining read 100%.
The compound remaining was 88.9% (rat; 15 min).
The compound remaining was 99.2% (human; 5 min).
It gave 58.2% for compound remaining (monkey; 30 min).
monkey; 5 min — compound remaining: 92.7%.
For mouse; 15 min: compound remaining read 93.1%.
For mouse; 45 min: compound remaining read 82.2%.
human; 0 h — compound remaining: 100%.
For rat; 5 min: compound remaining read 90.7%.
For mouse; 5 min: compound remaining read 99.6%.

Sample 4
Compound: CN1CCC[C@H]1COc1nc2c(c(N3CCN(C(=O)C(F)(F)F)[C@@H](CC#N)C3)n1)CCN(c1cccc3cccc(Cl)c13)C2
Observed: binding
Action: competitor
Method: NanoBRET
Cells: HEK293
KRAS G12D: GTPase KRas (KRAS, Homo sapiens, UniProt P01116, G12D)
KRAS Q61L: GTPase KRas (KRAS, Homo sapiens, UniProt P01116, Q61L)
KRAS G13D: GTPase KRas (KRAS, Homo sapiens, UniProt P01116, G13D)
It gave 112% and 93.4% and 102% for normalized BRET (KRAS G12D; 1.69 nM).
For KRAS Q61L; 1.24 µM: normalized BRET read 80.5% and 89.2% and 80%.
For KRAS Q61L; 412 nM: normalized BRET read 88.8% and 96% and 92.4%.
KRAS G13D; 412 nM — normalized BRET: 99.1% and 82.4% and 97.2% and 79.9%.
It gave 96.4% and 107% and 95.8% for normalized BRET (KRAS G12D; 137 nM).
For GTPase KRas (KRAS, Homo sapiens, UniProt P01116, Q61H); 412 nM: normalized BRET read 79.7% and 86.3% and 86% and 97.3%.
For KRAS G13D; 5.08 nM: normalized BRET read 87.7% and 98.8% and 98.5% and 108%.
It gave 23.6% and 22.4% and 27.7% for normalized BRET (KRAS Q61L; 33.3 µM).

Repeated from above (sample 2):
It gave 555 beats/min and 570 beats/min and 624 beats/min for heart rate (mice; intraperitoneal, 10 mg/kg, 60 min).
mouse; intraperitoneal, 10 mg/kg, 10 min — heart rate: 560 beats/min and 589 beats/min and 630 beats/min.
For mice; intravenous, 30 mg/kg, 60 min: heart rate read 426 beats/min and 486 beats/min and 489 beats/min and 540 beats/min and 550 beats/min and 543 beats/min.
